Measurements of several laboratories.
Observed: DPPH scavenging

`O=C1CCC(=O)C2(CCCCC2)N1` gave an IC50 of 94 µg/mL.
For `CSc1nc2nc(-c3ccccc3)cc(-c3ccc4ccccc4n3)c2c(=O)[nH]1`, the IC50 was 186 µM (absorbance; 30 min).
With `CC1(C)C2CC[C@@]1(C)C(=O)/C2=C/c1cc2ccccc2o1` the IC50 was 516 µM (15 min).
For `O=C1O[C@H]([C@@H](O)CO)C(O)=C1O`, the IC50 was 4.08 µg/mL.
`Cc1ccc(C(=O)N(C(=O)c2ccc(C)cc2)C(=S)N2N=C(c3ccc(C)cc3)CC2c2ccc(Cl)cc2)cc1` (stereo not drawn) gave an IC50 of 105 µM (absorbance).
`O=c1[nH]c(N2CCNCC2)nc2nc(-c3ccccc3)cc(-c3ccc4ccccc4n3)c12` gave an IC50 of 172 µM (absorbance; 30 min).
`CC12CCC(CC1=O)C2(C)C` (stereo not drawn) has an IC50 of > 2630 µM (15 min).
The IC50 of `Cc1ccc(C(=O)N(C(=O)c2ccc(C)cc2)C(=S)N2N=C(c3ccccc3)CC2c2ccc(F)cc2)cc1` (stereo not drawn) is reported as 104 µM (absorbance).
`O=c1[nH]c(N2CCOCC2)nc2nc(-c3ccccc3)cc(-c3ccc4ccccc4n3)c12` gave an IC50 of 174 µM (absorbance; 30 min).
For `Cc1ccc(C(=O)N(C(=O)c2ccc(C)cc2)C(=S)N2N=C(c3ccc(Br)cc3)CC2c2cccc(F)c2)cc1` (stereo not drawn), the IC50 was 104 µM (absorbance).
`CC1(C)C2CC[C@@]1(C)C(=O)/C2=C/c1ccco1` gave an IC50 of 452 µM (15 min).
`O=c1c2c(-c3ccc4ccccc4n3)cc(-c3ccccc3)nc2nc2n(-c3ccccc3)nc(-c3ccccc3)n12` has an IC50 of 142 µM (absorbance; 30 min).
For `Fc1ccc2[nH]c(-c3ccc(OCc4ccccc4)cc3)nc2c1`, the IC50 was 1.62 µM (absorbance).
The IC50 of `O=C1NC2(CCCCC2)c2[nH]c(=S)nc(-c3ccccc3)c21` is reported as 223 µg/mL.
`O=C1O[C@H]([C@@H](O)CO)C(O)=C1O` has an IC50 of 82 µM (absorbance; dark).
`CC1(C)C2CC[C@@]1(C)C(=O)/C2=C/c1cccs1` has an IC50 of 488 µM (15 min).
For `COc1cc(-c2nc3cc(Cl)ccc3[nH]2)ccc1OCc1ccccc1`, the IC50 was 1.66 µM (absorbance).
With `CC1(C)C2CC[C@]1(C)C(=O)/C2=C/c1ccsc1` the IC50 was 432 µM (15 min).
For `Cc1ccc(C(=O)N(C(=O)c2ccc(C)cc2)C(=S)N2N=C(c3ccc(Cl)cc3)CC2c2ccc(Cl)cc2)cc1` (stereo not drawn), the IC50 was 112 µM (absorbance).
With `NNc1nc(NN)c2c(-c3ccc4ccccc4n3)cc(-c3ccccc3)nc2n1` the IC50 was 168 µM (absorbance; 30 min).
With `Fc1ccc2[nH]c(-c3cccc(OCc4ccccc4)c3)nc2c1` the IC50 was 1.58 µM (absorbance).
`O=C1O[C@H]([C@@H](O)CO)C(O)=C1O` gave an IC50 of 38.5 µM (absorbance; 30 min).
With `O=C1O[C@H]([C@@H](O)CO)C(O)=C1O` the IC50 was 2.88 µg/mL (absorbance).
For `c1ccc(-c2cc(-c3ccc4ccccc4n3)c3c(N4CCNCC4)nc(N4CCNCC4)nc3n2)cc1`, the IC50 was 147 µM (absorbance; 30 min).
`CC1(C)C2CC[C@]1(C)C(=O)/C2=C/c1ccoc1` gave an IC50 of 472 µM (15 min).
For `O=C(O)c1ccccc1Nc1nc(Nc2ccccc2C(=O)O)c2c(-c3ccc4ccccc4n3)cc(-c3ccccc3)nc2n1`, the IC50 was 164 µM (absorbance; 30 min).
With `Cc1ccc(C(=O)N(C(=O)c2ccc(C)cc2)C(=S)N2N=C(c3ccc(Cl)cc3)CC2c2ccc(F)cc2)cc1` (stereo not drawn) the IC50 was 106 µM (absorbance).

Excerpt of the above:
`O=c1[nH]c(N2CCNCC2)nc2nc(-c3ccccc3)cc(-c3ccc4ccccc4n3)c12` gave an IC50 of 172 µM (absorbance; 30 min).
The IC50 of `O=C1NC2(CCCCC2)c2[nH]c(=S)nc(-c3ccccc3)c21` is reported as 223 µg/mL.
